Measured values of several laboratories.
Each line is one published result; not all experiments were run side by side.
Matrix: Caco-2

N#Cc1cccc(-c2ccc(=O)n(Cc3cccc(-c4ncc(OCC5CCN(CC(=O)N6CCN(c7ccc8c(c7)C(=O)N(C7CCC(=O)NC7=O)C8=O)CC6)CC5)cn4)c3)n2)c1 (centres unmarked)
Papp A→B (2 µM, 2 h, pH 7.4): 0.6 nm/s

CS(=O)(=O)c1ccc(-c2cc(Cl)c(C(=O)N[C@@H](CNC(=O)CNC(=O)c3cccc(NC(=N)N)c3)C(=O)O)c(Cl)c2)cc1
Papp A→B: 2 nm/s

O=c1c2sccc2n(CC2COc3ccccc3O2)c(=O)n1O (centres unmarked)
Papp B→A (10 µM): 56 nm/s

CN1CCC[C@@H]1C(=O)N[C@@H](Cc1ccc(-c2ccccc2)cc1)B(O)O
Papp A→B (5 µM, 1 h): 130 nm/s

CCC(CC)CNC(=N)NC(=N)NCCCCCCNC(=N)NC(=N)NCC(CC)CC
Papp B→A (5 µM, 2 h): 5.3 nm/s

O=c1c(-c2cnn(-c3ccccc3)c2)c(C(F)(F)F)oc2c(O)c(O)ccc12
Papp B→A: 613 nm/s

CCCCC(CC)CNC(=N)NC(=N)NCCC (centres unmarked)
Papp A→B (5 µM, 2 h): < 0.3 nm/s

O=C(CNC(=O)c1cccc(NC2=NCCCN2)c1)NC[C@H](NC(=O)c1c(Cl)cc(-c2ccccc2)cc1Cl)C(=O)O
Papp A→B: 7 nm/s

CO[C@@H](C[C@H]1C(C)=CC[C@@H]2[C@]3(C)C[C@H](O[C@@H]4O[C@@H](C)[C@H](O)[C@@H](O)[C@H]4O)[C@@H](O)C(C)(C)[C@H]3CC[C@]21C)[C@H](N)C(=O)O
Papp B→A (5 µM, 1 h): 0.7 nm/s

N#Cc1ccnc(N2C(=O)CC[C@H]2C(=O)N(c2cncc(F)c2)[C@H](C(=O)NC2CC(F)(F)C2)c2ccccc2Cl)c1
Papp A→B: 150 nm/s

CCCCC(CC)CNC(=N)NC(=N)NCCCCCCCCNC(=N)NC(=N)NCC(CC)CCCC (centres unmarked)
Papp B→A (5 µM, 2 h): 3 nm/s

N#C/N=C(\N)Nc1cccc(C(=O)NCC(=O)NC[C@H](NC(=O)c2c(Cl)cc(-c3ccccc3)cc2Cl)C(=O)O)c1
Papp B→A: 91 nm/s

N#Cc1ccnc(N2C(=O)[C@@H](O)C[C@H]2C(=O)N(c2cc(F)cc(F)c2)[C@H](C(=O)NC2CC(F)(F)C2)c2ccccc2Cl)c1
Papp A→B: 19 nm/s

O=C(CNC(=O)c1cccc(NC2=NCC(F)(F)CN2)c1)NC[C@H](NC(=O)c1c(Cl)cc(-c2ccccc2)cc1Cl)C(=O)O
Papp A→B: 30 nm/s

O=c1c(-c2cnn(-c3ccc(Cl)cc3)c2)c(C(F)(F)F)oc2c(O)c(O)ccc12
Papp A→B: 512 nm/s

O=C(CNC(=O)c1cccc(NC2=NCCCO2)c1)NC[C@H](NC(=O)c1c(Cl)cc(-c2ccccc2)cc1Cl)C(=O)O
Papp B→A: 34 nm/s

CNC(=N)NC(=N)NCCCCCCNC(=N)NC(=N)NC
Papp A→B (5 µM, 2 h): 6.2 nm/s

For quick reference, copied from above:
N#Cc1ccnc(N2C(=O)CC[C@H]2C(=O)N(c2cncc(F)c2)[C@H](C(=O)NC2CC(F)(F)C2)c2ccccc2Cl)c1
Papp A→B: 150 nm/s

CCC(CC)CNC(=N)NC(=N)NCCCCCCNC(=N)NC(=N)NCC(CC)CC
Papp B→A (5 µM, 2 h): 5.3 nm/s

N#Cc1ccnc(N2C(=O)[C@@H](O)C[C@H]2C(=O)N(c2cc(F)cc(F)c2)[C@H](C(=O)NC2CC(F)(F)C2)c2ccccc2Cl)c1
Papp A→B: 19 nm/s
